Results from different studies.
Compare with care: the assays were run in different laboratories. “And” joins repeats or separate records; there may be more than shown. Numbers after ± are the reported error.
USP51 ZnF-UBD domain: Ubiquitin carboxyl-terminal hydrolase 51, ZnF-UBD domain (USP51, Homo sapiens, UniProt Q70EK9)
Sequence of UniProt Q70EK9 (whole entry, looked up): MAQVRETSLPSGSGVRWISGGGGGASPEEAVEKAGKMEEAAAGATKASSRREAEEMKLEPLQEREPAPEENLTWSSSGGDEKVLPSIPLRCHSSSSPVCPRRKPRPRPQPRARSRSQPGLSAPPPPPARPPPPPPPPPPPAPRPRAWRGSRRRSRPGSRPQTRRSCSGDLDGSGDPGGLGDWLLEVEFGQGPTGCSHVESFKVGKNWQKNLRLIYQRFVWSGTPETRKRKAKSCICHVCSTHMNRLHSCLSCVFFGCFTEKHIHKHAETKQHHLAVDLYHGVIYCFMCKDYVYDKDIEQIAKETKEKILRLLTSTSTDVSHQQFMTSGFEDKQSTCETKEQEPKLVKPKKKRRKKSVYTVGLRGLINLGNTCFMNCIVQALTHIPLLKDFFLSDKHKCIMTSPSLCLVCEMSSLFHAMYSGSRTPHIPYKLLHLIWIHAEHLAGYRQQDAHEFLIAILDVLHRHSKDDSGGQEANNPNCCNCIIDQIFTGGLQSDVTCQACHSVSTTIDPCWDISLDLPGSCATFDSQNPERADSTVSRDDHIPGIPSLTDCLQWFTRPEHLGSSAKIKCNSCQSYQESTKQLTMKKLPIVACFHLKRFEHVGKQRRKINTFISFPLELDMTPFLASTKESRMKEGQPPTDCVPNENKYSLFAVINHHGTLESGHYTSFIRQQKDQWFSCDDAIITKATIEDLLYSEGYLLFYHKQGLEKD
Maoa: Amine oxidase [flavin-containing] A (Maoa, Rattus norvegicus, UniProt P21396)
Sequence of UniProt P21396 (whole entry, looked up): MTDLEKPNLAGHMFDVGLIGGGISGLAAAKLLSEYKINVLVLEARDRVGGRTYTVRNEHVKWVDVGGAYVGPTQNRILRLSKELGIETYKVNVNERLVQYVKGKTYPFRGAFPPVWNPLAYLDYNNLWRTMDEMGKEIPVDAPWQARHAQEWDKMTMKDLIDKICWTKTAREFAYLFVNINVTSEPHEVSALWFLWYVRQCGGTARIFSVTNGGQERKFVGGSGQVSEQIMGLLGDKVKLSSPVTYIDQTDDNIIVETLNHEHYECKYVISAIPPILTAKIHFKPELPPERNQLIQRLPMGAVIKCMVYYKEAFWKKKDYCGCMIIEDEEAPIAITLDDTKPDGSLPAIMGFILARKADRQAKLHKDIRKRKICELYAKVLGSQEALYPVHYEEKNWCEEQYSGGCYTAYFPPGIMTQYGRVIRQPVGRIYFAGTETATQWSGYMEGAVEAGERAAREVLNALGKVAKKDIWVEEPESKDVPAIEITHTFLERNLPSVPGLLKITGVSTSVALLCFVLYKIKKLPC
GAP50: Glideosome-associated protein 50 (GAP50, Plasmodium falciparum, UniProt Q8I2X3)
Sequence of UniProt Q8I2X3 (whole entry, looked up): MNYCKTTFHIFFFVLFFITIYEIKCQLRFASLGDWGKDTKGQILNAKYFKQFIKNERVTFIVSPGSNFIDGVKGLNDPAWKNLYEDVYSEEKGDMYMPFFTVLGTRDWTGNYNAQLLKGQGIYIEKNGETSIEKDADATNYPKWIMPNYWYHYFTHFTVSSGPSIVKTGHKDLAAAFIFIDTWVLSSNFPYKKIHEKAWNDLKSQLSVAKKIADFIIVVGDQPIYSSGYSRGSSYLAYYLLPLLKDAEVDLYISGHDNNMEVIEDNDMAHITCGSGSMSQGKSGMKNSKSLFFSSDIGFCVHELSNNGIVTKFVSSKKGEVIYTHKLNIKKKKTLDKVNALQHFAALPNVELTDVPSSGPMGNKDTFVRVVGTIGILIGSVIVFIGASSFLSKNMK
NOD2 W931A LRR domain: Nucleotide-binding oligomerization domain-containing protein 2, LRR domain (NOD2, Homo sapiens, UniProt Q9HC29, W931A)
Sequence of UniProt Q9HC29 (whole entry, unmodified, looked up): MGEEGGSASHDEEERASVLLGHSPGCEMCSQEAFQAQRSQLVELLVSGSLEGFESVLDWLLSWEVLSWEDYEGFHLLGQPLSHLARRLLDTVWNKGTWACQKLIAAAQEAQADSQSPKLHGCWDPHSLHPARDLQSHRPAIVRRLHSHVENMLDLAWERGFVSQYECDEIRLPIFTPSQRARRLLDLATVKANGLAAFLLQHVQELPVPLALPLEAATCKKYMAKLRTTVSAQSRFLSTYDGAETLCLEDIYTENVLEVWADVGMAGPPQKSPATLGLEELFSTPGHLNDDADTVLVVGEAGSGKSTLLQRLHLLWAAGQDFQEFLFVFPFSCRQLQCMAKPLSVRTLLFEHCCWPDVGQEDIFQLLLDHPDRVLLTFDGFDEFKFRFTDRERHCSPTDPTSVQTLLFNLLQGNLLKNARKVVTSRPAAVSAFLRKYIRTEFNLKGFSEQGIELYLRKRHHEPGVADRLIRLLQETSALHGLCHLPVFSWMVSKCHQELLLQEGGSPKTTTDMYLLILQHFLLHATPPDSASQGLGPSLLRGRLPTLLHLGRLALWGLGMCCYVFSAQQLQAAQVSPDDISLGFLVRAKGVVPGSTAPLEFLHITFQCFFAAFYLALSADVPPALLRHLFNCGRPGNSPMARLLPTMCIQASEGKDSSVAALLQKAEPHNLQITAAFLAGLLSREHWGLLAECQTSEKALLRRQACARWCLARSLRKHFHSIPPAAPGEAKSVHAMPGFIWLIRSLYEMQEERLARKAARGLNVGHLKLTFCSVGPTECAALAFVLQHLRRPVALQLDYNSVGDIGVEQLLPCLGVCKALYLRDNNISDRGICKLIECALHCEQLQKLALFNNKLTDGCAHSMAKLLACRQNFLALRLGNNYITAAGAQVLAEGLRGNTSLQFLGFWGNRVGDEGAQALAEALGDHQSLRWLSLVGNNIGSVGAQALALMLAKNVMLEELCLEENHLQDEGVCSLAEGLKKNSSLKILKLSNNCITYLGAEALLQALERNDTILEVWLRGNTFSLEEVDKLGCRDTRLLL
Sequence of UniProt O74544 (whole entry, unmodified, looked up): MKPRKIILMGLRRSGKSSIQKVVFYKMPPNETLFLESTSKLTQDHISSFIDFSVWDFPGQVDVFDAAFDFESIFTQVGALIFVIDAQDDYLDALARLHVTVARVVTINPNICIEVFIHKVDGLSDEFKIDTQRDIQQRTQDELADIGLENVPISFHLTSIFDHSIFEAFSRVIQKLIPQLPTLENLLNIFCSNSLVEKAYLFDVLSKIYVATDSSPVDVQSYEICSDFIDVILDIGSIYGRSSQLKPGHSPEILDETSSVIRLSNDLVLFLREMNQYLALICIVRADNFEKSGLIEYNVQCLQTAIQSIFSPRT
Sequence of UniProt P12689 (1-746, looked up): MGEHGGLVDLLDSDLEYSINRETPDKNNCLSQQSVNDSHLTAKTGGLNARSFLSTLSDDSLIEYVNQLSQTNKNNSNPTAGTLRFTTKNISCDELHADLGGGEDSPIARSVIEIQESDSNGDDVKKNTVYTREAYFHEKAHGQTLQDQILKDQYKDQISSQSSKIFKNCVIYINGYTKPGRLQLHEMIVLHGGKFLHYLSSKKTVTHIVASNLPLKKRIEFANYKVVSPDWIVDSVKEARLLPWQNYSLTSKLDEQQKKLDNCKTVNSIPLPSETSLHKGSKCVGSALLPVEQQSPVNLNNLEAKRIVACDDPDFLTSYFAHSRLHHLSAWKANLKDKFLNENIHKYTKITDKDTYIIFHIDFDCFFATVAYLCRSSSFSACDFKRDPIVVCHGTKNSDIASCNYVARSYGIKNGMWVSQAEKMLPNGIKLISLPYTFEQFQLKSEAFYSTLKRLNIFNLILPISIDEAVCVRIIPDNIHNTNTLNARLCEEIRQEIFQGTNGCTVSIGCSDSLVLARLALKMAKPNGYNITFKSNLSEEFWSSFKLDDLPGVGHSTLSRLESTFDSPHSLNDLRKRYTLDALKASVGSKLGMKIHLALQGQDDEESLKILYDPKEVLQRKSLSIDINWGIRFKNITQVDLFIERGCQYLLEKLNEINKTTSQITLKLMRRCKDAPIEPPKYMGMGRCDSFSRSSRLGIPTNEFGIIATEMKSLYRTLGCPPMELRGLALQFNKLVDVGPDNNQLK
Sequence of UniProt P94040 (whole entry, looked up): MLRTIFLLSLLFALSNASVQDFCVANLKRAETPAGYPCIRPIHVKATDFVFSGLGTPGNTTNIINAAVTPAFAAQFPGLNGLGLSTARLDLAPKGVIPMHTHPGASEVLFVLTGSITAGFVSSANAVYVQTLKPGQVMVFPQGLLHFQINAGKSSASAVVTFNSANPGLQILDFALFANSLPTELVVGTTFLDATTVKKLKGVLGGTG

Compound	target	test	test system	conditions	Kd
O=C(O)Cc1cccnc1	USP51 ZnF-UBD domain				> 1000 µM
N#CC(=Cc1ccsc1)C(N)=O	2-mercaptoethanol	thiol adduct formation, UV-visible titration	PBS	pH 7.4	11900 ± 920 µM
C[C@H](N)C(=O)N[C@H](CCC(=O)O)C(N)=O	Nucleotide-binding oligomerization domain-containing protein 2, LRR domain (NOD2, Homo sapiens, UniProt Q9HC29, S933A)	surface plasmon resonance		LRR mutant S933A	0.615 ± 0.086 µM
NCc1ccc(F)cc1	Maoa			pH 7.5, deprotonated amine, pKa-corrected	1.7 µM
Nc1ccn([C@H]2C[C@H](O)[C@@H](COP(=O)(O)OP(=O)(O)OP(=O)(O)O)O2)c(=O)n1	DNA repair protein REV1, residues 1-746 (REV1, Saccharomyces cerevisiae, UniProt P12689)	substrate, rapid chemical quench		pH 7.5, 30 °C, together with: primer-template DNA	32 ± 7 µM
Cn1cc(CNCC2CCN(c3ncc(C(=O)NO)cn3)CC2)c2ccccc21	HDAC10 (Homo sapiens, UniProt Q969S8)	inhibitor, competition pulldown	SW620 and MV4-11 lysate	1 h	0.0672 µM
COc1cc2oc(=O)cc(C)c2cc1CCC(=O)O	USP51 ZnF-UBD domain				> 1000 µM
Nc1nc2c(ncn2[C@@H]2O[C@H](COP(=O)(O)OP(=O)(O)OP(=O)(O)O)[C@@H](O)[C@H]2O)c(=O)[nH]1	GTP-binding protein gtr2, with Gtr1 (gtr2, Schizosaccharomyces pombe, UniProt O74544, F161W)	UV crosslinking titration		4 °C	0.068 µM
COc1cc(O)c2c(c1)oc(=O)c1c3cc(O)c(O)cc3oc21	MAL12 (Saccharomyces cerevisiae S288c, UniProt P53341)	fluorescence quenching		307 K	6.17 µM
c1cncc(NCc2ccc(-c3cc4ccncc4cc3OC3CCNCC3)s2)c1	GAP50	binding, surface plasmon resonance		1:1 binding model	45.8 µM
NCc1ccccc1	Maoa	binding, steady-state isotope effects		pH 7.5	460 µM
Cc1nnc(NCc2cccc(Cl)c2)c2ccccc12	GAP50	binding, surface plasmon resonance		1:1 binding model	67.2 µM
O=C(O)Cc1c[nH]c2ccccc12	Germin-like protein subfamily 3 member 1 (GLP1, Arabidopsis thaliana, UniProt P94040)	binding, microscale thermophoresis		Flag-tagged protein from protoplasts	1.73 µM
Cc1ccc(-c2c(C#N)c(N)n3c(nc4ccccc43)c2C#N)cc1	His-SUMO-FSP1	binding, SPR steady-state			0.255 µM
O=[N+]([O-])c1cc(C(F)(F)F)ccc1NCc1ccco1	Endothelial PAS domain-containing protein 1, PAS-B domain (EPAS1, Homo sapiens, UniProt Q99814, N288A)	ITC, reverse mode		25 °C	0.84 ± 0.05 µM
Cc1cc2nc3c(=O)[nH]c(=O)nc-3n(C[C@H](O)[C@H](O)[C@H](O)COP(=O)(O)OP(=O)(O)OC[C@H]3O[C@@H](n4cnc5c(N)ncnc54)[C@H](O)[C@@H]3O)c2cc1C	FMR1-interacting protein NUFIP2 (NUFIP2, Homo sapiens, UniProt Q7Z417)	binding, MS pulldown competition	SW-620 cell lysate		0.087 µM
O=C(O)c1ccccc1Sc1ncnc2sc3c(c12)CCC3	GAP50	binding, surface plasmon resonance		1:1 binding model	60.2 µM
CC(=O)NC1C(O)OC(CN)C(O)[C@@H]1O[C@H](C)C(=O)N[C@@H](C)C(=O)N[C@H](CCC(=O)O)C(N)=O (stereo partly drawn)	NOD2 W931A LRR domain	surface plasmon resonance		LRR mutant W931A	0.78 ± 0.133 µM
OCCC#Cc1nc(-c2ccc(F)cc2)c(-c2ccncc2)n1CCCc1ccccc1	GAP50	binding, surface plasmon resonance		1:1 binding model	28.3 µM
COC(=O)C(C)OC1C(O)C(CO)OC(O)C1NC(C)=O (stereo not drawn)	NOD2 (Homo sapiens, UniProt Q9HC29)	binding, backscattering interferometry	HEK293T cell vesicles		0.003 to 0.03 µM
N=C(N)NCC(=O)O	SLC6A6 (Homo sapiens, UniProt P31641, E406A)	microscale thermophoresis		E406A mutant	59 ± 20.1 µM
O=C(O)Cc1cc(-c2ccc(C(=O)O)s2)sc1-c1ccc(-c2sc(-c3ccc(C(=O)O)s3)cc2CC(=O)O)s1	Microtubule-associated protein tau, 0N4R isoform, aggregated (MAPT, Homo sapiens, UniProt P10636)	binding, fluorescence	50% sucrose tau fraction		0.203 µM
COc1cc2ncc(-c3ccccc3)nc2cc1OC	FLT3 (Homo sapiens, UniProt P36888)	competition binding		11-point threefold dilution	0.062 µM
CC(C)N1CCC(NC(=O)c2cc3[nH]ccc3cc2Cl)CC1	Nuclear receptor subfamily 4 group A member 2 (Homo sapiens, UniProt P43354)	isothermal titration calorimetry		25 °C	no binding
O=C(O)CCC(=O)c1ccc2c(c1)CCC(=O)N2	USP51 ZnF-UBD domain				> 1000 µM
CC(C)C[C@@H]1NC(=O)[C@H](C(C)C)NC(=O)CNC(=O)[C@H](CC(N)=O)NC(=O)[C@@H]2CCCN2C(=O)[C@H](Cc2ccc(O)cc2)NC(=O)[C@H](CCCNC(=N)N)NC(=O)[C@H](Cc2ccccc2)NC(=O)[C@@H](NC(=O)[C@H](CCCCN)NC(=O)[C@@H]2CCCN2C(=O)[C@H](C)NC(=O)[C@H](C)NC(=O)[C@@H](N)Cc2ccc(O)cc2)CSSC[C@@H](C(=O)N[C@H](C(N)=O)[C@@H](C)O)NC(=O)[C@H](C)NC1=O	fucoidan	binding, isothermal titration calorimetry		pH 7.0, 25 °C	0.31 µM

Compound	target	test	test system	conditions	Kd
O=C(O)Cc1nc2ccccc2o1	USP51 ZnF-UBD domain				> 1000 µM
CC[C@H](C)[C@H](NC(=O)[C@H](CC(C)C)NC(=O)[C@H](Cc1ccc(OP(=O)(O)O)cc1)NC(=O)[C@H](CCC(=O)O)NC(=O)[C@H](CC(=O)O)NC(=O)[C@H](C)NC(=O)[C@H](CC(=O)O)NC(=O)[C@@H](NC(=O)[C@@H](NC(=O)[C@H](CC(=O)O)NC(=O)[C@H](CC(=O)O)NC(=O)[C@H](CCSC)NC(=O)c1ccc2c(c1)C(=O)OC21c2ccc(N(C)C)cc2Oc2cc(N(C)C)ccc21)C(C)C)C(C)C)C(=O)N1CCC[C@H]1C(=O)N[C@@H](CCC(N)=O)C(=O)N[C@@H](CCC(N)=O)C(=O)NCC(=O)N[C@@H](Cc1ccccc1)C(=O)N[C@@H](CC(=O)O)C(=O)O	Tyrosine-protein kinase ABL2, SH2 domain (ABL2, Homo sapiens, UniProt P42684)	binding			0.282 µM
Oc1ccc(Sc2ccc(O)cc2)cc1	HSP90AA1 (Homo sapiens, UniProt P07900)	binding, fluorescence polarization competition		together with: geldanamycin-FITC	21.3 ± 6.1 µM
NS(=O)(=O)c1ccccc1	CA14 (Homo sapiens, UniProt Q9ULX7)	thermal shift		pH 7.0, 25 °C	3.33 µM
Cc1nc2ccc(Oc3ccccc3)cc2c2c1CCN2CCc1ccccc1	GAP50	binding, surface plasmon resonance		1:1 binding model	52.6 µM
CC(C)(COP(=O)(O)OP(=O)(O)OC[C@H]1O[C@@H](n2cnc3c(N)ncnc32)[C@H](O)[C@@H]1OP(=O)(O)O)[C@@H](O)C(=O)NCCC(=O)NCCS	GNPNAT1 (Homo sapiens, UniProt Q96EK6)	competitor, competition MS pulldown	SW-620 cell lysate	together with: photo-immobilized beads	26.3 µM
CC(C)(C)c1cc(C(=O)Nc2cccnc2)cc(C(=O)Nc2cccnc2)c1	GAP50	binding, surface plasmon resonance		1:1 binding model	90.5 µM
NCc1ccc(C(F)(F)F)cc1	Maoa			pH 7.5, deprotonated amine, pKa-corrected	15 µM
COc1cccc(C=O)c1O	Aromatic O-demethylase, cytochrome P450 subunit (gcoA, Amycolatopsis sp., UniProt P0DPQ7)	binding, ferric spin-state titration	Amycolatopsis sp. ATCC 39116	ferric enzyme without reductase	28 ± 4 µM
C[C@@H](O)[C@H](N)C(=O)O	SAR11_1346 protein (Candidatus Pelagibacter sp.)	binding, direct isothermal titration calorimetry			< 0.005 µM
CCCCCCC/C=C/C(=O)N1C(=O)CC(=O)C1CC(C)C (stereo not drawn)	acetyl-CoA acetyltransferase (Streptococcus macacae, UniProt G5JW77)				2.52 µM
C[N+](C)(C)CC(=O)O	uncharacterized protein (Pelagibacter ubique, UniProt Q4FKZ8)	binding, competition isothermal titration calorimetry	Candidatus Pelagibacter ubique	together with: glycine competitor	0.00196 ± 0.00023 µM
[Ca+2].[Cl-].[Cl-]	Metacaspase-2 (MCA2, Trypanosoma brucei brucei, UniProt Q585F3)	binding, low-affinity site, intrinsic fluorescence		pH 7.4, 25 °C	900 ± 100 µM
O=C(O)Cn1cnc2ccccc2c1=O	USP51 ZnF-UBD domain				> 1000 µM
CC(C)C[C@H](N)C(=O)O	SAR11_1346 protein (Candidatus Pelagibacter sp.)	binding, competition isothermal titration calorimetry		together with: serine 5 mM competitor	2.88e-05 µM and 2.23e-05 µM
O=C(O)CCc1ccccc1	USP51 ZnF-UBD domain				> 1000 µM
CC(=O)N[C@@H]1[C@@H](O)[C@H](O)[C@@H](CO)O[C@H]1O	NOD2 W931A LRR domain	surface plasmon resonance		LRR mutant W931A	1.38 ± 0.303 µM
COc1ccc(SCC(=O)N2c3ccccc3Sc3ccccc32)cc1	GAP50	binding, surface plasmon resonance		1:1 binding model	19.3 µM
Nc1nc(CC(=O)O)cs1	USP51 ZnF-UBD domain				> 1000 µM
NC(=O)C[C@H](N)C(=O)O	SAR11_1346 protein (Candidatus Pelagibacter sp.)	binding, isothermal titration calorimetry		one-set-of-sites model	0.301 µM
Nc1ncnc2c1ncn2[C@@H]1O[C@H](CSCC[C@H](N)C(=O)O)[C@@H](O)[C@H]1O	O-methyltransferase (Sorghum bicolor, UniProt A0A1B6PFV1)	ITC		together with: saturating PTR	0.675 ± 0.155 µM
N#CC(=Cc1ccc(-n2ccnc2)cc1)C(N)=O	2-mercaptoethanol	thiol adduct formation, UV-visible titration	PBS	pH 7.4	1290 ± 30 µM
OC[C@H]1OC(O)[C@H](O)[C@@H](O)[C@@H]1O (stereo partly drawn)	Putative transcription factor Ovo-like 1 (OVOL1, Homo sapiens, UniProt O14753)	binding, microscale thermophoresis			> 2000 µM
O=C(O)CCn1cnc2ccccc21	USP51 ZnF-UBD domain				> 1000 µM
CC(C)(C)NC(=O)[C@@H]1CN(Cc2cnc3occc3c2)CCN1C[C@@H](O)C[C@@H](Cc1ccccc1)C(=O)N[C@H]1c2ccccc2C[C@H]1O	GAP50	binding, surface plasmon resonance		1:1 binding model	0.123 µM

Some of these lines once more:
Compound	target	test	test system	conditions	Kd
O=C(O)CCc1ccccc1	USP51 ZnF-UBD domain				> 1000 µM
CC(=O)N[C@@H]1[C@@H](O)[C@H](O)[C@@H](CO)O[C@H]1O	NOD2 W931A LRR domain	surface plasmon resonance		LRR mutant W931A	1.38 ± 0.303 µM
COc1ccc(SCC(=O)N2c3ccccc3Sc3ccccc32)cc1	GAP50	binding, surface plasmon resonance		1:1 binding model	19.3 µM
Nc1nc(CC(=O)O)cs1	USP51 ZnF-UBD domain				> 1000 µM
NC(=O)C[C@H](N)C(=O)O	SAR11_1346 protein (Candidatus Pelagibacter sp.)	binding, isothermal titration calorimetry		one-set-of-sites model	0.301 µM
Nc1ncnc2c1ncn2[C@@H]1O[C@H](CSCC[C@H](N)C(=O)O)[C@@H](O)[C@H]1O	O-methyltransferase (Sorghum bicolor, UniProt A0A1B6PFV1)	ITC		together with: saturating PTR	0.675 ± 0.155 µM
N#CC(=Cc1ccc(-n2ccnc2)cc1)C(N)=O	2-mercaptoethanol	thiol adduct formation, UV-visible titration	PBS	pH 7.4	1290 ± 30 µM
OC[C@H]1OC(O)[C@H](O)[C@@H](O)[C@@H]1O (stereo partly drawn)	Putative transcription factor Ovo-like 1 (OVOL1, Homo sapiens, UniProt O14753)	binding, microscale thermophoresis			> 2000 µM
